Published values pooled from the literature.
Compare with care: the assays were run in different laboratories. ± marks the error that the study gave.

| Compound | cell line | assay | conditions | how to read | viability |
| --- | --- | --- | --- | --- | --- |
| COC(=O)[C@]1(C)CCC[C@]2(C)[C@H]3C[C@H]4C(C(C)C)=C[C@]3(CC[C@H]21)[C@H]1[C@@H]4[C@@H](OCC#CCN2CCCC2)CC[C@@H]1O | BHK-21-hACE2 |  | 20.0 µM, 48 (unit not given) |  | 114% |
| C=C(C(=O)OC)[C@@H]1CC[C@@]2(C)CCC(=O)C(C)=C2C1 | RBL-2H3 | cell growth or viability, MTT | 100 µM |  | > 90% |
| COc1cc2c(cc1OC)C(=O)C(=Cc1ccc(N3CC[N+](C)(C)CC3)cc1)C2 | PC-12 | cell viability, MTT | concentration not given, 48 h |  | no effect |
| O=C(CN1CCN(c2cc3c(cc2F)c(=O)c(C(=O)O)cn3C2CC2)CC1)Nc1ccc(Cl)cc1 | Hec50co GOF p53 | MTS | 10 µM, 72 h |  | 101.1 ± 1% |
| C=C(C(=O)O)[C@@H]1CC[C@@]2(C)CCC(=O)C(C)=C2C1 | RBL-2H3 | cell growth or viability, MTT | 100 µM |  | > 90% |
| CC(C)C1=C[C@@]23CC[C@@H]4[C@](C)(CCC[C@@]4(C)C(=O)OCC#CCN4CCCC4)[C@H]2C[C@@H]1[C@H]1C(=O)OC(=O)[C@H]13 | BHK-21-hACE2 |  | 20.0 µM, 48 (unit not given) |  | < 50% |
| C[C@H](c1cccc2ccccc12)N1CCC(C(=O)NCc2cc(F)cc(NC(=O)CN(C)C)c2)CC1 | hACE2-HeLa | CellTiter-Glo | 10 µM, 72 h | reference: untreated | ~60% |
| COc1ccc(C(=O)CCl)c2c1C(=O)CO2 | HMC3 GRN luciferase reporter clone | ATP-based | 11 µM, 72 h, 10% FBS |  | > 75% |
| CC(C)C[C@H](NC(=O)CNC(=O)[C@H](C)NC(=O)[C@H](CCCNC(=N)N)NC(=O)[C@H](CO)NC(=O)[C@H](CO)NC(=O)[C@H](CCCNC(=N)N)NC(=O)[C@@H](N)[C@@H](C)O)C(=O)N[C@@H](CCC(N)=O)C(=O)N[C@@H](Cc1c[nH]c2ccccc12)C(=O)N1CCC[C@H]1C(=O)N[C@H](C(=O)NCC(=O)N[C@@H](CCCNC(=N)N)C(=O)N[C@H](C(=O)N[C@@H](Cc1cnc[nH]1)C(=O)N[C@@H](CCCNC(=N)N)C(=O)N[C@@H](CC(C)C)C(=O)N[C@@H](CC(C)C)C(=O)N[C@@H](CCCNC(=N)N)C(=O)N[C@@H](CCCCN)C(=O)O)C(C)C)C(C)C | WI-38 | MTT | 1 µM, 48 h | reference: water-treated | 91 ± 6% |
| CC(C)C1=C[C@@]23CC[C@@H]4[C@](C)(CCC[C@@]4(C)C(=O)OCC#CCN4CCCC4)[C@H]2C[C@@H]1[C@H]1C(=O)CCC(=O)[C@H]13 | BHK-21-hACE2 |  | 20.0 µM, 48 (unit not given) |  | 115% |
| N=C(N)NCCC[C@H](NC(=O)[C@H](CCCNC(=N)N)NC(=O)[C@H](CCCNC(=N)N)NC(=O)[C@H](CCC(N)=O)NC(=O)[C@H](CCCNC(=N)N)NC(=O)[C@H](CCCNC(=N)N)NC(=O)[C@H](CCCCN)NC(=O)[C@H](CCCCN)NC(=O)[C@H](CCCNC(=N)N)NC(=O)CN)C(=O)O | BEAS-2B | MTT | concentration not given, outcome not toxic |  | not toxic |
| CCN(CC)CC#CCOC(=O)[C@]1(C)CCC[C@@]2(C)[C@H]1CC=C1C=C(C(C)C)CC[C@@H]12 | BHK-21-hACE2 |  | 20.0 µM, 48 (unit not given) |  | 101% |
| N[C@H](CC[As](O)O)C(=O)O | HCC1569 |  | 10 µM, 72 (unit not given) |  | ~47% |
| CCCCCCCCCCCCCCCC(=O)N[C@@H](CCCCN)C(=O)N1CCC[C@H]1C(=O)N[C@H](C(N)=O)C(C)C | murine cells | MTT | 50 µM, 2 h, medium without FBS | reference: untreated | ≥ 85.5% |
| CC(C)C1=C[C@@]23CC[C@@H]4[C@](C)(CCC[C@@]4(C)C(=O)OCC#CCN4CCOCC4)[C@H]2C[C@@H]1[C@H]1C(=O)CCC(=O)[C@H]13 | BHK-21-hACE2 |  | 20.0 µM, 48 (unit not given) |  | < 50% |
| CC[C@H](C)[C@H](NC(=O)[C@@H](NC(=O)[C@H](Cc1ccc(O)cc1)NC(=O)[C@@H]1CSSC[C@@H]2NC(=O)[C@@H]3CCCN3C(=O)[C@H](CC(N)=O)NC(=O)[C@H](Cc3ccccc3)NC(=O)[C@H](CCC(=O)O)NC(=O)[C@H](C(C)C)NC(=O)[C@H](CC(=O)O)NC(=O)[C@@H]3CSSC[C@H](NC(=O)[C@H]([C@@H](C)O)NC(=O)[C@H](CC(C)C)NC(=O)[C@@H]4CCCN4C(=O)[C@@H]4CCCN4C(=O)[C@H](CSSC[C@H](N)C(=O)N4CCC[C@H]4C(=O)NCC(=O)N[C@@H](CCC(=O)O)C(=O)NCC(=O)N[C@@H](CCC(=O)O)C(=O)N[C@@H](CCC(N)=O)C(=O)N3)NC2=O)C(=O)N[C@@H]([C@@H](C)CC)C(=O)N2CCC[C@H]2C(=O)NCC(=O)N[C@@H](CC(=O)O)C(=O)N2CCC[C@H]2C(=O)N[C@@H](Cc2ccc(O)cc2)C(=O)NCC(=O)N[C@@H]([C@@H](C)CC)C(=O)N1)[C@@H](C)CC)C(=O)O | MCF-10A | MTT | up to 50 µM, 48 h |  | not toxic |
| Cc1cc(O)c2c(C(=O)[O-])[n+]3n(c2c1)CCCC3 | HepG2 | cell growth or viability, CCK-8 | 10 µM, 24 h |  | 99.3% |
| CSCC[C@H](N)C(=O)N[C@@H](CCC(=O)O)C(=O)N[C@H](C(=O)NCC(=O)N[C@@H](Cc1c[nH]c2ccccc12)C(=O)N[C@@H](Cc1ccc(O)cc1)C(=O)N[C@@H](CCCNC(=N)N)C(=O)N[C@@H](CO)C(=O)N1CCC[C@H]1C(=O)N[C@@H](Cc1ccccc1)C(=O)N[C@@H](CO)C(=O)N[C@@H](CCCNC(N)=O)C(=O)N[C@H](C(=O)N[C@H](C(=O)N[C@@H](Cc1c[nH]cn1)C(=O)N[C@@H](CC(C)C)C(=O)N[C@@H](Cc1ccc(O)cc1)C(=O)N[C@@H](CCCNC(N)=O)C(=O)N[C@@H](CC(N)=O)C(=O)NCC(=O)N[C@@H](CCCCN)C(N)=O)C(C)C)C(C)C)C(C)C | mouse bone marrow-derived dendritic cells | MTT | up to 3 µM | reference: untreated | 62% |
| CC(C)C1=C[C@@]23CC[C@@H]4[C@](C)(CCC[C@@]4(C)C(=O)NCC#CCN4CCCNCC4)[C@H]2C[C@@H]1[C@H]1C(=O)OC(=O)[C@H]13 | BHK-21-hACE2 |  | 20.0 µM, 48 (unit not given) |  | 113% |
| COc1cc(-c2oc3cc(OC)c(OC)c(O)c3c(=O)c2OC)ccc1O | RBL-2H3 | cell growth or viability, MTT | 100 µM |  | > 90% |

Repeated from above:
| Compound | cell line | assay | conditions | how to read | viability |
| --- | --- | --- | --- | --- | --- |
| CC(C)C1=C[C@@]23CC[C@@H]4[C@](C)(CCC[C@@]4(C)C(=O)NCC#CCN4CCCNCC4)[C@H]2C[C@@H]1[C@H]1C(=O)OC(=O)[C@H]13 | BHK-21-hACE2 |  | 20.0 µM, 48 (unit not given) |  | 113% |
| CSCC[C@H](N)C(=O)N[C@@H](CCC(=O)O)C(=O)N[C@H](C(=O)NCC(=O)N[C@@H](Cc1c[nH]c2ccccc12)C(=O)N[C@@H](Cc1ccc(O)cc1)C(=O)N[C@@H](CCCNC(=N)N)C(=O)N[C@@H](CO)C(=O)N1CCC[C@H]1C(=O)N[C@@H](Cc1ccccc1)C(=O)N[C@@H](CO)C(=O)N[C@@H](CCCNC(N)=O)C(=O)N[C@H](C(=O)N[C@H](C(=O)N[C@@H](Cc1c[nH]cn1)C(=O)N[C@@H](CC(C)C)C(=O)N[C@@H](Cc1ccc(O)cc1)C(=O)N[C@@H](CCCNC(N)=O)C(=O)N[C@@H](CC(N)=O)C(=O)NCC(=O)N[C@@H](CCCCN)C(N)=O)C(C)C)C(C)C)C(C)C | mouse bone marrow-derived dendritic cells | MTT | up to 3 µM | reference: untreated | 62% |
| CC(C)C1=C[C@@]23CC[C@@H]4[C@](C)(CCC[C@@]4(C)C(=O)OCC#CCN4CCCC4)[C@H]2C[C@@H]1[C@H]1C(=O)OC(=O)[C@H]13 | BHK-21-hACE2 |  | 20.0 µM, 48 (unit not given) |  | < 50% |
